# Assay results from different studies.
# Parts stem from different laboratories: compare values within a part only.

# Study 1
# Target: RNA binding protein fox-1 homolog 2, RRM domain, GST-SBP tag (RBFOX2, Homo sapiens, UniProt O43251-10, residues 100-194)
# Technique: RNA Bind-n-Seq
# Molecule type: RNA
# Matrix: in vitro
# Concentration: 365 nM
# Setting: natural RNA segment, single round, ends assumed
# Reference: no-protein control
# Direction: higher = stronger binding
# Shared flanks, not repeated: GGGAGUUCUACAGUCCGACGAUC … UGGAAUUCUCGGGUGCCAA
# Target sequence (chain): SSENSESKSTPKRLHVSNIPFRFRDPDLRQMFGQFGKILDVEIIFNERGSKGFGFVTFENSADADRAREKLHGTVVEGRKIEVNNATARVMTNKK
Oligonucleotide,RBNS enrichment (R)
CAGGAGCUACUCAGGAAGGAACGUCUGGUCCUAACCAGUGAGCACUGGUUAGUACUGGUCCCCUUCUGGGCAACAUGGCCCUACCAGACACUGCUGCUGCCCCGUCGGCA,0.204
AGUAGACAGAAGAGGAAGAAAGAACAGAUGUUCACAGCUGAAUCUCAGUGAACAGAAUAGCAGUCCCUGGAUGGCAGUCUGCCUAAAGAUUCCUUUCCCUGCCUUCUCCC,0.353
CCAGCUGGGCUGUUAGCCGGGCCACCCCCUCUGAAGGUGAAACUGAGCAGAUGAGGCCACAGAAGCACAAGGGGAAGGUGCCGUGUCAAGCCCAGGCAGACGAGACCUCU,0.386
UGAGAGAGGGAUCUUGCAGCUGUCAUUUCUGGUCUUGUAGCCUUCAUCAGAGGCUGUUUUCCAUGAUCUGGUCCUUCCUCCAGAAAGAAGCAGGAGUUCUCAGAGGAACA,0.428
AGUGGGCCUGGUAGCACAUGUCUGUCCUCAGAGCAGGGGCCAGAUGAUUUUCCUCCCUGGUUUGCAGCUGUUUUCAAAGCCCCCGAUAAUCGCUCUUUUCCACUCCAAGA,0.576
CGGGGAGUUCCUGAAAGACUAGUUAGGGACAUUUGCUCAUCUCCUUCUGAGGCCAUCUGCAGAAAGUCCCCUGUGCCUUCUUUGGGAAGUCUCUUGUCAAUCCACAAGAA,0.205
AAAUGCCCAGUCACUGCCCUUUCUAUUGGUGGAGAACAAUCGCAAAAUCUGUGUAUAAUUAGCAAUAACAGAACUAAACCAUUGUUUAGUUGCUAAUCAUAUGUUGCUUU,0.297
UGAAUGGCUAAGGGAACAUCUGGAAAGGAAGGAAAAUGAGCCCUAAAGGUUUUUUGGUUGCUUGUUUUUGUUUCUUUUUCUUUCUUGUUUCCUUUUUUGUUUUUAAAUCC,0.448
CCGACUUUACAUGCUCAGAAUGCUGUGCACAAGCCACGCUUUCUAAAGCCCAUCCAGAUUAGUUUAGCUCUGACCACUAAUGGCAGGUCUUAAGGACCUUGUGAUUAGUC,0.286
UUCAUGGCCCUUUAUCCUAAUAUUCAAGGACAAGUUCAUAAAGAGAUUGAUUUAAUUGUGGGCCACAACAGGAGACCUUCUUGGGAAUACAAAUGCAAAAUGCCUUAUAC,0.356
UUGUUCAUAUCGUGUCAGAGAUUUCCUCUUCUCUGGAGCUUAGGUGGCUCUUCACAAUCCAUAGGCUUGAAUCUGCAACCUAGUGUAAACUGCCUUGCUUUCCCCGGUUC,0.573
GAACCCCACUCAGCGAAUUGGGGGUGGCCUGGGAGAUGCUGCUGAUGUCCAGAGGCACCCCUUUUUCCGGCACAUCAAUUGGGAUGAUCUCUUGGCCCGCCGCGUGGACC,0.494

# Study 2
# Target: Sal-like protein 4, full length isoform A (SALL4, Homo sapiens, UniProt Q9UJQ4, residues 1-1053)
# Sequence of UniProt Q9UJQ4 (whole entry, looked up): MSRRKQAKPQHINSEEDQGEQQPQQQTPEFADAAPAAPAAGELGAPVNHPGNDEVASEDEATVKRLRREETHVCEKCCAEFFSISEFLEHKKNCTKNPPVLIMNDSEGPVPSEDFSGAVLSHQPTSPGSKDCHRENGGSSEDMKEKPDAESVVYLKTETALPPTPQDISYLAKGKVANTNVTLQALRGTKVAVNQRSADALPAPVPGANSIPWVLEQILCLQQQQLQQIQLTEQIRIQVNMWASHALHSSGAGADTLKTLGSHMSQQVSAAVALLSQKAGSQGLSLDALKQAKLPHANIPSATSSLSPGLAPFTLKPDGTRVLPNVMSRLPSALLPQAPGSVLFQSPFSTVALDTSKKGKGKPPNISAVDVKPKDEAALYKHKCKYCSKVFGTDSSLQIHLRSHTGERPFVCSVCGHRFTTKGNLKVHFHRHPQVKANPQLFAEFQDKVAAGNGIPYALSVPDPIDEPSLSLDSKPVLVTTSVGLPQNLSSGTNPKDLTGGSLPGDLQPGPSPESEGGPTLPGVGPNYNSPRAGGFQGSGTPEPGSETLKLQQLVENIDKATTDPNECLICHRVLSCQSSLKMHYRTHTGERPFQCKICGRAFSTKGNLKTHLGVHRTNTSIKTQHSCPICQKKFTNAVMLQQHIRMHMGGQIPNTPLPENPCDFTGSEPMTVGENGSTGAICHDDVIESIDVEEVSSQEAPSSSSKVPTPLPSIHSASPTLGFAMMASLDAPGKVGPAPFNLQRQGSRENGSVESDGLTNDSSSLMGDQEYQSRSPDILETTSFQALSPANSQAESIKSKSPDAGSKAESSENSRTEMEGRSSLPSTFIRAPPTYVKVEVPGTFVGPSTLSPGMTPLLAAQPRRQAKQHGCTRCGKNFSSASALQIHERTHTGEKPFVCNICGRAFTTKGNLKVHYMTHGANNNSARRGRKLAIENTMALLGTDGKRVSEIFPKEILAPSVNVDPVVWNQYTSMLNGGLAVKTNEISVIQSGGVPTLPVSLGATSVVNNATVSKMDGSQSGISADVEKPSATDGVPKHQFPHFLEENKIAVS
# Technique: universal PBM
# Molecule type: double-stranded DNA, one strand shown
# Matrix: in vitro
# Concentration: 600 nM
# Setting: 8-mer, flanks averaged, mean of replicates
# Direction: higher = stronger binding
Oligonucleotide,E-score
TCCCCGGA,-0.338
AATCTTTG,0.157
AGCGCCAA,-0.0116
ATCTCGCA,0.212
AAGGCGAT,-0.00798
CACGAGAG,-0.115
CCTCTTAA,0.0731
CGTGCTTA,-0.0207
GGGGGGAC,-0.351
GGACTGGA,-0.0822
CAAACACG,0.0319
GCAAATAC,0.228
TCAAGCGA,0.0634
ATCAAAGA,0.188
CCTAACAG,-0.0522
CACCCAAA,-0.0598

# Study 3
# Target: Histone acetyltransferase KAT6A, winged helix 1, GST fusion (KAT6A, Homo sapiens, UniProt Q92794, residues 1-85)
# Technique: protein binding microarray
# Molecule type: double-stranded DNA, one strand shown
# Matrix: in vitro
# Concentration: not given
# Setting: 8-mer, flanks averaged, mean of 2 arrays, mostly near background
# Reference: not given
# Direction: higher = stronger binding
# Construct (chain): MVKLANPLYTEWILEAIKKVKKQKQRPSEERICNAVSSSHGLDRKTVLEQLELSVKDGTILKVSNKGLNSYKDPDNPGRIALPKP
Oligonucleotide,E-score
AGCCGCTA,0.286
AAGAAGAG,-0.111
ATTCGGGC,0.0492
ACAACGCA,-0.00958
AGTGCCTG,-0.14
GGCTCTAC,-0.0193
CCCGCAAA,0.0886
ATAGTGGC,-0.0426
CGTGGTAA,0.0246
GTGTCCGA,0.15
CTGTTCCC,-0.0557
AAAGGGGT,-0.157
CCTCAATC,-0.0748
CTTGAAAC,-0.0346
AGGCCAGA,-0.174
CTACAGCA,-0.14
AAAAACAC,-0.141

# Study 4
# Target: Fragile X messenger ribonucleoprotein 1, C-terminal low-complexity region (Fmr1, Mus musculus, UniProt P35922)
# Technique: RNA Bind-n-Seq
# Molecule type: RNA
# Matrix: in vitro
# Concentration: 200 nM
# Setting: whole 134-nt RNA, ends assumed
# With: 150 mM LiCl
# Reference: input library
# Direction: higher = stronger binding
# Library: 7-deaza-guanosine replaces G
# Shared flanks, not repeated: GGGAGUUCUACAGUCCGACGAUC … UGGAAUUCUCGGGUGUCAAGG
Oligonucleotide,log2 enrichment
CCUCAAGUCCUGUGCUACACAUCGUAUGUACCGAAUCGGGAGGGGAGGAGGGAAAGUAUUAUGUUACGCCGUUCGGAUCUGCACUUCCAG,-0.559
AGUCCUGUGCUACACAUCGUAUGUACCGAAUCGGGCCCCGGGCCCCGGGCCCCGGGGAAAGUAUUAUGUUACGCCGUUCGGAUCUGCACU,-3.2
GCAGGAAGUAAAAACAAAUGGAAAUGCUUCGGAUAGUGGCAGGGGUGGGGGUUGCUAAGGAAAGGGUGGGAUCGGAGUGGGUAAAGAGUU,0.842
AGUCCUGUGCUACACAUCGUAUGUACCGAAUCGGGCCCCGGGGCCCCGGGGCCCCGGAAAGUAUUAUGUUACGCCGUUCGGAUCUGCACU,0.455
CAAGUCCUGUGCUACACAUCGUAUGUACCGAAUCGGAAAAAAAGGUUUUUGGAGGAAAGUAUUAUGUUACGCCGUUCGGAUCUGCACUUC,-1.67
UAACUUUAGAGGAGGAUCUGAUGGAUAUGGCAGUGGACGUGGAUUUGGGGAUGGCAAUAAUGGGUAUGGAGGAGGACCUGGAGGUGGCAA,1.06

# Study 5
# Target: RING finger protein unkempt homolog, zinc fingers 1-6, GST-SBP tag (UNK, Homo sapiens, UniProt Q9C0B0, residues 30-357)
# Sequence of UniProt Q9C0B0 (30-357, looked up): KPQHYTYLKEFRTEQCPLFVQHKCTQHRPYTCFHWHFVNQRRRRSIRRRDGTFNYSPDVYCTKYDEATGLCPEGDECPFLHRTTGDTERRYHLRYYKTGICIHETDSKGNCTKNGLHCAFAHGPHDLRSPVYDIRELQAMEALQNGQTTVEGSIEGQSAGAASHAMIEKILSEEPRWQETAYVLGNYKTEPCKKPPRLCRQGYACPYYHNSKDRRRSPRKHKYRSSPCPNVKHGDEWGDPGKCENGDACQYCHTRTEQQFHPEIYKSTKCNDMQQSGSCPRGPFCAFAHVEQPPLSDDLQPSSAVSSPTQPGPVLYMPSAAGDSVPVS
# Technique: RNA Bind-n-Seq
# Molecule type: RNA
# Matrix: in vitro
# Concentration: not given
# Setting: RNA with constant flanks, human and mouse sites, ends assumed
# Reference: input RNA pool
# Direction: higher = stronger binding
# Shared flanks, not repeated: GGGAGUUCUACAGUCCGACGAUC … CAACAGAGGAUUGAGCAUCA
Oligonucleotide,bound/input enrichment [ratio]
AUAUUUGUAAAUAAAGGUAGAAACAUUGGGAUCCACCCCUGCAGAACUUACUGUACAGUUUAGUUGAAGUGUAGAAAGGAAUUGUCAGCUCAUCGUGACUGAUACAUAGUGAAGAAAGUA,9.39
CAGCUGGAAGAUGGCCGCACCCUGUCAGACUACAACAUCCAGAAAGAGUCCACCCUGCACUUAGUCCUUCGCCUCAGAGGUGGGAUGCAGAUCUUUGUGAAGACCCUGACAGGCAAAACC,0.168
AAUGAUGUUGAAGUCAAAUGGAUUGAAUACCAGAAUAUGGUGAACUACCUCAUCCAAUGGAUUAGACACCAUGUGACCACAAUGUCUGAGAGAACAUUUCCUAAUAAUCCUGUAGAACUG,0.31
CCGUCUAUAUAUGUGUGAAUAAUGUAAGUAUUUUACAGCAUGUUGAUUUUUAAAUUAACGUAGUAAAUGCUGUAAAAUAGAUUUAUAUUCAGUUAACCGCUUUCAGUUGAUUUUUUGAAA,0.427
AGGACGCCAAGAGUUUUAAGGAAUAUAGGGGGAUUAAAGUAUGGAGAUACAGAAGAAACCACUAAGUCUGAUGUCCAAAUGGGCACACUGUCAGUUUUGUUUCCCUUCAGUUGUUUGAUG,0.357
UCCCAUGGUGGAGGAGACAGCAGCAUGAUGAUGAUGCCUAUGACCUUCUACUUUGGCUUUAAGAAUGUGGAACUACUGUUUUCCGGUUUGGUGAUCAAUACAGCUGGAGAAAUGGCUGGA,0.242
UUUUUAUUAUACAUUUAUUUUUUGUCGUUAUAUACUGGUGUGUGAUCCAAGUUAUACAUGAAUAGAAAAAGAUGGUGUUAAAUUUGUGUGUAGGCUGGGAAUUCUUGCUGAAGGAAUUGG,0.973
CAUGCAGAUGCUGACCGAUCACCUAUAUUUCUUCAGUUUAUUGAUUGUGUUUGGCAGAUGACAAGACAGUUCCCUUCAGCAUUUGAGUUUAAUGAAUUAUUCUUGAUUACAAUUUUGGAU,0.209
GGAUCCAGUCUUGGUGGAUGGCUCAUGCUGCAUGCUGCAAUUGCACGGCCGGAAAAAGUCAUAGCUCUUAUUGGUAUAGCUACUGCUGCAGAUGGAUUGGUGACACAAUAUCAUGCACUU,0.21
AUCUGCCUACACGCCUUCUACUAUGCCAUAUGGAAGCGGUACGGGGCCCUCCCUGAGCGCUAUAACUGGCAACUCCAGGCCCCUGAUGUUCUCUUCUACCCUCUGAGACCAGAGCUAGUG,0.332
CCAGACAAGAUUGACUAUGCCUCGCUAGACCCACUCAACAUCAAGCAGAACAACAAGCAGGCCUUCGAUGGCUUCGCGGCUCUGGGCGUGUCGCGGCUGCUGGAGCCCGCGGACAUGGUG,0.205

# Some of these lines once more (study 5):
Oligonucleotide,bound/input enrichment [ratio]
GGAUCCAGUCUUGGUGGAUGGCUCAUGCUGCAUGCUGCAAUUGCACGGCCGGAAAAAGUCAUAGCUCUUAUUGGUAUAGCUACUGCUGCAGAUGGAUUGGUGACACAAUAUCAUGCACUU,0.21
CCAGACAAGAUUGACUAUGCCUCGCUAGACCCACUCAACAUCAAGCAGAACAACAAGCAGGCCUUCGAUGGCUUCGCGGCUCUGGGCGUGUCGCGGCUGCUGGAGCCCGCGGACAUGGUG,0.205
AAUGAUGUUGAAGUCAAAUGGAUUGAAUACCAGAAUAUGGUGAACUACCUCAUCCAAUGGAUUAGACACCAUGUGACCACAAUGUCUGAGAGAACAUUUCCUAAUAAUCCUGUAGAACUG,0.31
AUCUGCCUACACGCCUUCUACUAUGCCAUAUGGAAGCGGUACGGGGCCCUCCCUGAGCGCUAUAACUGGCAACUCCAGGCCCCUGAUGUUCUCUUCUACCCUCUGAGACCAGAGCUAGUG,0.332
UCCCAUGGUGGAGGAGACAGCAGCAUGAUGAUGAUGCCUAUGACCUUCUACUUUGGCUUUAAGAAUGUGGAACUACUGUUUUCCGGUUUGGUGAUCAAUACAGCUGGAGAAAUGGCUGGA,0.242
AUAUUUGUAAAUAAAGGUAGAAACAUUGGGAUCCACCCCUGCAGAACUUACUGUACAGUUUAGUUGAAGUGUAGAAAGGAAUUGUCAGCUCAUCGUGACUGAUACAUAGUGAAGAAAGUA,9.39
